Results collected from several papers.
Numbered parts are unrelated; each lists some results of a single study. Values joined by “and” are separate records of one study, mostly repeats; a detail may differ.

Series 1 — method: protein-binding microarray; molecule type: double-stranded DNA, one strand shown; medium: in vitro; concentration: 940 nM top; setting: 60-bp whole probe; together with: salmon DNA 0.4 mg/ml; relative to: random background probes; reading: higher = stronger binding; quantity: fitted relative affinity; all sequences stand within: GCCTAGCAC … GTCTTGATTCGCTTGACGCTGCTG
Target: Interferon regulatory factor 5, full length, phosphomimetic (IRF5, Homo sapiens, UniProt Q13568-2, residues 1-514, S451D/S453D/S456D/S462D)
TCAGTCCTCACTTCCTTACTGTGCTAG: 0.92 z-score
GACGAACTGAGCATCGAGACGTGCTAG: -0.373 z-score
GAGATTTTCATTATTGCTTCGTGCTAG: 1.6 z-score
TCATGTCTGTAGCTCATACTGTGCTAG: -0.458 z-score
GACGATCTCAGCTTCGAGACGTGCTAG: 0.0882 z-score
GACGATATCGGGTATCGAGAGGTGCTA: 1.17 z-score
TTAGGTTTCAGTCTCGGTTAGTGCTAG: 8.06 z-score

Series 2 — method: RNA Bind-n-Seq; molecule type: RNA; medium: in vitro; concentration: 365 nM; relative to: no-protein control; reading: higher = stronger binding; quantity: RBNS enrichment (R)
Target: RNA binding protein fox-1 homolog 2, RRM domain, GST-SBP tag (RBFOX2, Homo sapiens, UniProt O43251-10, residues 100-194)
Setting: natural RNA segment, single round, ends assumed
All sequences stand within: GGGAGUUCUACAGUCCGACGAUC … UGGAAUUCUCGGGUGCCAA
AAAUCCAUUCAUACUAGUGGACAUCAUUUCUAAGUUUCCUUGCUACUGUUACACCCUUUGAACGGAUGCUUUAGCUCUGAUGUCGUCACAGAGCCUUGGUUUAUCCUGUA: 0.692
UGGCAUAAAAAUGUGAUACACUUAGAGACAUUUUGUUUAUUGCAUAUAAAUCUAAUUUUUCCAUAAAUUAGAUUUAUGAUAUUUUCAUAAAGCACUUGAUUAGUUUUUCA: 0.72
AAAGAGAAGCAAUAUUGUGCAACUGGUGCAGUGGUGAGUUAAUCAUAGUGUAUAACCUUGUGUUCAUGAAACAGGUUGUUCAUUGUUCUGCAUCUCUCUUCAUUUAAAAA: 0.412
GUGAACAUGCCGUAACUCUGUGACUGCAUUGUAAGUGCAGUGGGGGUAAGCAGUCCUGUGAGUGGCGCAUGAACGCUGGAGCUUAUUCCGCCGCCUGCCCCAGUGUGGGG: 1.51
AGUUGAAAUGAUGUUUAUUGUAGAUGGUAUUUGAACUUAUUCUUCUGGAAAUAGUUCAUCAAGUAUGUUUGUUGCUCAUUGUGAUACAUUAAAAACUGUAUCUACAUAUU: 1

Series 3 — method: universal PBM; molecule type: double-stranded DNA, one strand shown; medium: in vitro; concentration: not given; reading: higher = stronger binding; quantity: E-score
Target: Sal-like protein 4, full length isoform B (SALL4, Homo sapiens, UniProt Q9UJQ4-2, residues 1-616)
Setting: 8-mer, flanks averaged, mean of replicates
Residues (chain): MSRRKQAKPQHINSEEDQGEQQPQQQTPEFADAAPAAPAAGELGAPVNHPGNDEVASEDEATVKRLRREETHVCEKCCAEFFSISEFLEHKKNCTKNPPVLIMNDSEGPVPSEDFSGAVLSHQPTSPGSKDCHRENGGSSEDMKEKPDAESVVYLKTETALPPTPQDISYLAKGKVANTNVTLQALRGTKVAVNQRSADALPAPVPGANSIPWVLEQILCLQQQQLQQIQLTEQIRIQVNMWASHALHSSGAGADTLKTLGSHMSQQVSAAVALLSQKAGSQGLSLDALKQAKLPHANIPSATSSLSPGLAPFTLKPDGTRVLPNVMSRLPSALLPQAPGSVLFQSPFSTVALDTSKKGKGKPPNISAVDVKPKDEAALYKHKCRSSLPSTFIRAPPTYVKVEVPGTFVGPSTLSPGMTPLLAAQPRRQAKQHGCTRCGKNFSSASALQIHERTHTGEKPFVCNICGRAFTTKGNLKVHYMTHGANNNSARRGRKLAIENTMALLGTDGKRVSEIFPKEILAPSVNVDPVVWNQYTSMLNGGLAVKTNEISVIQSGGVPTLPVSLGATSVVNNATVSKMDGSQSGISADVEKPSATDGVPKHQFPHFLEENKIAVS
CCGCAAAG: -0.145
AAGAGCTT: -0.158
ATATCCTC: 0.174
GTAAGTAC: 0.13
ACCATGCG: -0.157
CGAGCCGC: -0.152

Further values, each from its own experiment
PhoQ, residues 284 288 289 292 302 303 NLMGRA  fold induction (PhoP, residues 12 14 15 18 19 LWHCS (Escherichia coli, UniProt P23836); Sort-seq, measured: YFP reporter; E. coli; PhoQ-PhoP variant library, together with: 10 µM Mg2+; relative to: high Mg2+ state, higher = stronger signaling): 23.5 and 9.71

Repeated from above (series 1):
TCAGTCCTCACTTCCTTACTGTGCTAG: 0.92 z-score
GAGATTTTCATTATTGCTTCGTGCTAG: 1.6 z-score
